Published values gathered from unrelated publications.
A part holds a random share of what one study measured. Changes are numbered by the printed parent chain.

Study 1
Target: Sal-like protein 4, full length isoform A (SALL4, Homo sapiens, UniProt Q9UJQ4, residues 1-1053)
UniProt Q9UJQ4, sequence (whole entry, looked up): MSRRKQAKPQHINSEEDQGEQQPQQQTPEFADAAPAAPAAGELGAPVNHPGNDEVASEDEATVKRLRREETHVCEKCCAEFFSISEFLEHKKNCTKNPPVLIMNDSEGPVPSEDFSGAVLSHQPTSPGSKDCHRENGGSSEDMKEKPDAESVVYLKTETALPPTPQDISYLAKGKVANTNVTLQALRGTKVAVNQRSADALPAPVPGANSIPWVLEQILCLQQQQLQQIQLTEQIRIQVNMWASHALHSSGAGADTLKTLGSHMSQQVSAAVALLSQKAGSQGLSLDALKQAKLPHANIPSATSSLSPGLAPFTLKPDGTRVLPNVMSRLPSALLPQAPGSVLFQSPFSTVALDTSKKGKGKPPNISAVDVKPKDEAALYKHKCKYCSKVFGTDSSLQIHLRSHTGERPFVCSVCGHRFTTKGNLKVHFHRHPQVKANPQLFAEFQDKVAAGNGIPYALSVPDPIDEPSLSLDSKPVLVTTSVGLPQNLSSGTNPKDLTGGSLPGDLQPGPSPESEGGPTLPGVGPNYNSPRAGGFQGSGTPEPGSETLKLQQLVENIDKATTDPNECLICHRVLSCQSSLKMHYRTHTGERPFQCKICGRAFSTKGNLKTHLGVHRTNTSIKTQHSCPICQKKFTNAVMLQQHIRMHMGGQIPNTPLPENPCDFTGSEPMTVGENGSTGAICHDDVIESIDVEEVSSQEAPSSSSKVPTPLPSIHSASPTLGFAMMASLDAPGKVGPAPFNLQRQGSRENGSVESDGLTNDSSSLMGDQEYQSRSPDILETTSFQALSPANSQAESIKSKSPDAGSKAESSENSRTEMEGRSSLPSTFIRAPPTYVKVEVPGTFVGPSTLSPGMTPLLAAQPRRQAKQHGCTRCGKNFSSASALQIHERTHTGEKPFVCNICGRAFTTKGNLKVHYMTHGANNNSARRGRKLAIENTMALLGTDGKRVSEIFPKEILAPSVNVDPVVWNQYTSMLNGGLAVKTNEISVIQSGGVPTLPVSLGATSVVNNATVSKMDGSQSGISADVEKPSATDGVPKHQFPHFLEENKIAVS
Method: universal PBM
Form: double-stranded DNA, one strand shown
Medium: in vitro
Tested at: 600 nM
Notes: 8-mer, flanks averaged, mean of replicates
Reading: higher = stronger binding
Sequence	E-score
CTCGTGTA	0.075
CGCTTACG	-0.169
CAATTTGG	0.0824
TACCCCAA	-0.162
GGTCCCGA	-0.35
GACCAAGA	-0.135
CCCTATGC	-0.0636
GGGGTAGA	-0.12
AGTCGTCG	-0.208
CACATCGG	-0.181
GGGCCTAA	-0.325
ATAAAGCG	0.287
CCTTTACG	0.0611
ACTTGCTC	-0.0509
AAATGTTA	0.275
CCTATAAA	0.204

Study 2
Target: RNA binding protein fox-1 homolog 2, RRM domain, GST-SBP tag (RBFOX2, Homo sapiens, UniProt O43251-10, residues 100-194)
Method: RNA Bind-n-Seq
Form: RNA
Medium: in vitro
Tested at: 365 nM
Notes: natural RNA segment, single round, ends assumed
Relative to: no-protein control
Reading: higher = stronger binding
Target sequence (chain): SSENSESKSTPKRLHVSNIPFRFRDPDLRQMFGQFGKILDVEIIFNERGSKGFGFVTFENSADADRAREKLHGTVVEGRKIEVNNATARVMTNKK
Sequence	RBNS enrichment (R)
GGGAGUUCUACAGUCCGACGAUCUUUUCAGAGCAGCUAGAUGUCUGCAUGUGUGCAUAUAUGCAUGCCCACUCCUUUCAUAUACGUUUGUGAAGCACCUGCCUUGAGUUCUAAUAAAAUUGCCCGUUUUGCAUUGGAAUUCUCGGGUGCCAA	11.1
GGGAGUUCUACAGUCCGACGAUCUUUUCUGGGCAAAGCAUGGCCCCUUUUCCCCAGGACAAAGGGAACAGUUGGUGUCUGGGAAGGUAUUGAACGCUCCUCACCCUGUGCCCGAAGAGACCCGGAACCAAGACUGGAAUUCUCGGGUGCCAA	0.379
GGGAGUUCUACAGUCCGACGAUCGGAAGCAGAUGUACAUACUACAUACAUGUCACAUACUACAUACAUGUCAUGUACUACACACAUGUCAUAUAGUACAUACAUGUCAUGUCCAUUUAACGACUGGUCACCUGUGGAAUUCUCGGGUGCCAA	0.226
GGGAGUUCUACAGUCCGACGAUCAAUCGGGUUGUCACUCAACAAAAGUGCUUUGGAUUUAAGUUACUAUCCUGGCUUUGCCCAACCUCAGCAACCUGUAAGACUGAUAAUGAAAUAAAUCAUGUUAAUCCUAGUGGAAUUCUCGGGUGCCAA	0.239
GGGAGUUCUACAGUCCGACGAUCUGCACUUCAAAAAAGCUUAAUUAAGUACAACCAACCACCUUUCCAGCCAUAGAGAUUUUAAUUAGCCCAACUAGAAGCCUAGUGUGUGUGCUUUCUUAAUGUGUGUGCCAUGGAAUUCUCGGGUGCCAA	0.523
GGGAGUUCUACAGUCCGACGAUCGAGUCCACAGGCAUUGCCUCUGACAGCUCCAGCGACUCUUCUAGCUCCUCUAGUUCCAGCUCGUCAGACUCGGACUCAGAGUGUGAAUCUGGGUCAGAAGGUGAUGGGACUGGAAUUCUCGGGUGCCAA	0.203
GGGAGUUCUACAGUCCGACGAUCCGGCUCACGCUUACCUCAACCAUCCUGGCUGCGGCGUCUGUCUGAACCACGCGGGGGCCUUGAGGGACGCUUUGUCUGUCGUGAUGGGGCAAGGGCACAAGUCCUGGAUGUGGAAUUCUCGGGUGCCAA	0.456
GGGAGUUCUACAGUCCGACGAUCUGUCAGAAUGGCACUAGUUCAGUUUAUGUCCCUUCUGAUAUAGUAGCUUAUUUGACAGCUUUGCUCUUCCUUAAAAUAAAAACAGAAAAAUAUAUCGUCCUAACAGUUAAUGGAAUUCUCGGGUGCCAA	0.376
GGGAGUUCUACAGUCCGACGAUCCUGGUCUUACUGUCCAUGUGUGUUUGGGCCCGGAUGGUCAGGGUGGGGAGCAGGGACGGCCAUGGGCACGCCUGGCCACGCUUUACCGACUGCUGACCCCCUGGGCCAGGUGGAAUUCUCGGGUGCCAA	0.561
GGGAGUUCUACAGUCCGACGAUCAGUUGUGUUUGUGUUAGCAUGUGGGUGAUGUAAACUACAAAUUGGGAGCUGUUCCGACCCCCGCUCCUGUGUAAGCAUUCAAUCAGUGUAACUUGCAAAAUGCAUAAACAUGGAAUUCUCGGGUGCCAA	11.2
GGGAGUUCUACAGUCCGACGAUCCCUCCUAACUUUUAUAGUUAUUUUGUUUUAUAUUUCUGAAUUCUUGUAUCAGAUCCAAAGCUCUAUUGUACAGCAAAUUAUUCUUCAAAGUGAUUAUAACCAGUUACAACUGGAAUUCUCGGGUGCCAA	0.556
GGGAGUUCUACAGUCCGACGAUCAACAGCAGUUGCAUUGAUUUUGAAAACAAACCCCCUUGUUAUCUGAACAUGUUUUCUUCAGGAACAACCAGAGGUAUCACAAACACUGUUACUCAUCUACUGGCUCAGACUGGAAUUCUCGGGUGCCAA	0.376

Study 3
Target: CCNB1, cyclin fold, Cln2 fusion (human)
Method: yeast growth competition, sequencing
Medium: yeast
Notes: strong parent motif
Relative to: not given
Reading: higher = stronger binding
Parent: MASTL docking peptide (human); PMIAKNLMCELDE; partner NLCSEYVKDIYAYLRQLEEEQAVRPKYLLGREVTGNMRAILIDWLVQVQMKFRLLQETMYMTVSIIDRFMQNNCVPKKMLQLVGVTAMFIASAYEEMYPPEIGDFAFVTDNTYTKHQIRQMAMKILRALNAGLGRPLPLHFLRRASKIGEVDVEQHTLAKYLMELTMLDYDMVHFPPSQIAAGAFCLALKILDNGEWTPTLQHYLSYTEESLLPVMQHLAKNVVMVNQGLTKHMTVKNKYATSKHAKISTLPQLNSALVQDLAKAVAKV
Substitution	normalised enrichment score
PMIAKNLMCQLDE [E10Q]	0.861
PMIAKNCMCELDE [L7C]	-0.0233
PMISKNLMCELDE [A4S]	1.58
PMFAKNLMCELDE [I3F]	0.44
PMIQKNLMCELDE [A4Q]	1.28
PMIGKNLMCELDE [A4G]	0.19
PMIAKKLMCELDE [N6K]	0.364
PMIATNLMCELDE [K5T]	0.321
PDIAKNLMCELDE [M2D]	2.61
PMIAKNKMCELDE [L7K]	0.192
PMIAKNLMCPLDE [E10P]	-0.0717
PMIAKNNMCELDE [L7N]	-0.0178
PMEAKNLMCELDE [I3E]	0.298
PLIAKNLMCELDE [M2L]	2.2
PMIAKNLMCELGE [D12G]	0.965
PMIPKNLMCELDE [A4P]	0.815
PMIAQNLMCELDE [K5Q]	-0.0134
PMIFKNLMCELDE [A4F]	1.33
PMIWKNLMCELDE [A4W]	1.24
PMIAKNLWCELDE [M8W]	0.978
PPIAKNLMCELDE [M2P]	2.37
PMIAKNLMEELDE [C9E]	2.06
PMIAKNDMCELDE [L7D]	-0.286
PMIAKNLYCELDE [M8Y]	1.41
PMIAKNHMCELDE [L7H]	-0.375

Study 4
Target: Ras GTPase-activating protein-binding protein 1, C-terminal RGG region (G3BP1, Homo sapiens, UniProt Q13283)
UniProt Q13283, sequence (whole entry, looked up): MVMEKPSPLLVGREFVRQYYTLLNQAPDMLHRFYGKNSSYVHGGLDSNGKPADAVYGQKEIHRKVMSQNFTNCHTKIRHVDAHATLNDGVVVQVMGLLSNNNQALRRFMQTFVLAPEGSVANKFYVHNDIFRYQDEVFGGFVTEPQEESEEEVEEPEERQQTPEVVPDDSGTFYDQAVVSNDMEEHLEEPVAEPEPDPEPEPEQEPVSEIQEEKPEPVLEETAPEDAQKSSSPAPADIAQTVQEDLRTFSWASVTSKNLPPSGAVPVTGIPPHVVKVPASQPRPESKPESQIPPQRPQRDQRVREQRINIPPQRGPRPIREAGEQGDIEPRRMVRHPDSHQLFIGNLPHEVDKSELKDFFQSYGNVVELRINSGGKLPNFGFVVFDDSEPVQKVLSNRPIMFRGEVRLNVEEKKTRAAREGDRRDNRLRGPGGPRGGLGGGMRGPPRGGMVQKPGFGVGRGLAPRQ
Method: RNA Bind-n-Seq
Form: RNA
Medium: in vitro
Tested at: 1 µM
Notes: whole 134-nt RNA, ends assumed
Added: 150 mM KCl
Relative to: input library
Reading: higher = stronger binding
Sequence	log2 enrichment
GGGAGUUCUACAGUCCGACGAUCUCCUGUGCUACACAUCGUAUGUACCGAAUCGGCCCCCCGGCCCCCCGGGCCCCCCGGGGAAAGUAUUAUGUUACGCCGUUCGGAUCUGCAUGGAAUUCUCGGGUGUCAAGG	-1.12
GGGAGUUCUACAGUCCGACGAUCAGUCCUGUGCUACACAUCGUAUGUACCGAAUCGGGUUUUGGGGUUUUGGGUUUUGGGGAAAGUAUUAUGUUACGCCGUUCGGAUCUGCACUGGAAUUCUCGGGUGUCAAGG	0.778
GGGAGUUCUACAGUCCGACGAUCGUCCUGUGCUACACAUCGUAUGUACCGAAUCGGCCCCCCGGCCCCCCGGGGCCCCCCGGAAAGUAUUAUGUUACGCCGUUCGGAUCUGCAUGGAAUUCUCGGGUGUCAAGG	-0.825
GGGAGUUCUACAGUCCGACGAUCCCUGUGCUACACAUCGUAUGUACCGAAUCGGGUUUUUUGGUUUUUUGGGGUUUUUUGGGGAAAGUAUUAUGUUACGCCGUUCGGAUCUGCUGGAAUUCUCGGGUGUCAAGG	-1.73
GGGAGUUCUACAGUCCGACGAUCCAAGUCCUGUGCUACACAUCGUAUGUACCGAAUCGGGGCCCCGGCCCCGGCCCCGGAAAGUAUUAUGUUACGCCGUUCGGAUCUGCACUUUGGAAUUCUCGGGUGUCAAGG	-1.76
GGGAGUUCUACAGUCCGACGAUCACCAUGCAGGUGGGCAUCUUUGGGAAGUGGGGCAAGGGGGGGAUAGGGAGGGGGGUAACACUUUGGGAACAGGUGGUCCCAGCUCGUUUCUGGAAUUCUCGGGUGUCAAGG	2.01
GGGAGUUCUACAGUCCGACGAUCUCAAGUCCUGUGCUACACAUCGUAUGUACCGAAUCGGUUUUUGGAGGUUUUUGGAAAGUAUUAUGUUACGCCGUUCGGAUCUGCACUUCCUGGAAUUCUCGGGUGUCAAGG	-0.958
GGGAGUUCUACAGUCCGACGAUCUCAAGUCCUGUGCUACACAUCGUAUGUACCGAAUCGGUUUGGAAAAAGGUUUGGAAAGUAUUAUGUUACGCCGUUCGGAUCUGCACUUCCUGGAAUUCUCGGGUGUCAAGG	-1.25
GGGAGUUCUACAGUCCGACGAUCAAGUCCUGUGCUACACAUCGUAUGUACCGAAUCGGAAAAAAAGGUUUGGAAAAAGGAAAGUAUUAUGUUACGCCGUUCGGAUCUGCACUUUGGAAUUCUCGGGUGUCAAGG	-2.2
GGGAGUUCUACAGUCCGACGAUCUGCAGGGUCUGGGUAGCAGCUGGGCUUCCAGCUUUCUCCUUGCACCUGACUUGGGCUUUUUUCUCCUCACAGGAUGGGCCUUGACGGCAUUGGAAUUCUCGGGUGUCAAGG	-0.19

A few entries again (study 4):
Sequence	log2 enrichment
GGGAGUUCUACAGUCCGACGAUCUCAAGUCCUGUGCUACACAUCGUAUGUACCGAAUCGGUUUUUGGAGGUUUUUGGAAAGUAUUAUGUUACGCCGUUCGGAUCUGCACUUCCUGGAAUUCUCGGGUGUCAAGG	-0.958
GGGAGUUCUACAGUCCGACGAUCCAAGUCCUGUGCUACACAUCGUAUGUACCGAAUCGGGGCCCCGGCCCCGGCCCCGGAAAGUAUUAUGUUACGCCGUUCGGAUCUGCACUUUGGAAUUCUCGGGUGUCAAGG	-1.76
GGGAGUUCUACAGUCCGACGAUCUCAAGUCCUGUGCUACACAUCGUAUGUACCGAAUCGGUUUGGAAAAAGGUUUGGAAAGUAUUAUGUUACGCCGUUCGGAUCUGCACUUCCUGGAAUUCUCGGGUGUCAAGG	-1.25
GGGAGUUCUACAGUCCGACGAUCUGCAGGGUCUGGGUAGCAGCUGGGCUUCCAGCUUUCUCCUUGCACCUGACUUGGGCUUUUUUCUCCUCACAGGAUGGGCCUUGACGGCAUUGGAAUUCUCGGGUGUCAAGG	-0.19
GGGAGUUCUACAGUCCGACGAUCAAGUCCUGUGCUACACAUCGUAUGUACCGAAUCGGAAAAAAAGGUUUGGAAAAAGGAAAGUAUUAUGUUACGCCGUUCGGAUCUGCACUUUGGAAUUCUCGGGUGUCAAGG	-2.2
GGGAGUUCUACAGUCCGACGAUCCCUGUGCUACACAUCGUAUGUACCGAAUCGGGUUUUUUGGUUUUUUGGGGUUUUUUGGGGAAAGUAUUAUGUUACGCCGUUCGGAUCUGCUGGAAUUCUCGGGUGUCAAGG	-1.73
